Assay results of several laboratories.
Compare with care: the assays were run in different laboratories. Numbers after ± are the reported error.
POLB: DNA polymerase beta (POLB, Homo sapiens, UniProt P06746)
SCTR: Secretin receptor (SCTR, Homo sapiens, UniProt P47872)
UniProt P47872, sequence (whole entry, looked up): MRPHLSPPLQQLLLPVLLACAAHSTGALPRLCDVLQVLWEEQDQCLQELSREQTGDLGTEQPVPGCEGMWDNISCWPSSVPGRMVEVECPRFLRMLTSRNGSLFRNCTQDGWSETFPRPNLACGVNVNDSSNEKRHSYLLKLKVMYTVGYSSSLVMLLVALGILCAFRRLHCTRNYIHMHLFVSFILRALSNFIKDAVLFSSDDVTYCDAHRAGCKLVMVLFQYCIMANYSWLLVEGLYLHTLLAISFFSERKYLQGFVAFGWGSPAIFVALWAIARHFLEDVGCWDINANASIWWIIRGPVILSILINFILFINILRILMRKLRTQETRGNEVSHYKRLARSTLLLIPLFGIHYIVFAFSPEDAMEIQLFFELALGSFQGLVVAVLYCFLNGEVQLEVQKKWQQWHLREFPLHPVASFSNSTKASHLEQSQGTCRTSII
POLB I260M: DNA polymerase beta (POLB, Homo sapiens, UniProt P06746, I260M)
T1: ssRNA FMR1 5' UTR CGG repeat (Homo sapiens); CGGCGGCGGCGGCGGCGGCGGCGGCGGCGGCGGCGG
UniProt P31941, sequence (whole entry, looked up): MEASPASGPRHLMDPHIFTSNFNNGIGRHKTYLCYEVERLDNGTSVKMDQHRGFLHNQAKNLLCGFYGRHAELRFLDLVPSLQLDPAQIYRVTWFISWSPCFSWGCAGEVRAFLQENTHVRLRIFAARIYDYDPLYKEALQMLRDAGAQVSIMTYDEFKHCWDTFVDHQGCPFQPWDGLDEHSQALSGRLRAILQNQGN
UniProt P10636, sequence (whole entry, looked up): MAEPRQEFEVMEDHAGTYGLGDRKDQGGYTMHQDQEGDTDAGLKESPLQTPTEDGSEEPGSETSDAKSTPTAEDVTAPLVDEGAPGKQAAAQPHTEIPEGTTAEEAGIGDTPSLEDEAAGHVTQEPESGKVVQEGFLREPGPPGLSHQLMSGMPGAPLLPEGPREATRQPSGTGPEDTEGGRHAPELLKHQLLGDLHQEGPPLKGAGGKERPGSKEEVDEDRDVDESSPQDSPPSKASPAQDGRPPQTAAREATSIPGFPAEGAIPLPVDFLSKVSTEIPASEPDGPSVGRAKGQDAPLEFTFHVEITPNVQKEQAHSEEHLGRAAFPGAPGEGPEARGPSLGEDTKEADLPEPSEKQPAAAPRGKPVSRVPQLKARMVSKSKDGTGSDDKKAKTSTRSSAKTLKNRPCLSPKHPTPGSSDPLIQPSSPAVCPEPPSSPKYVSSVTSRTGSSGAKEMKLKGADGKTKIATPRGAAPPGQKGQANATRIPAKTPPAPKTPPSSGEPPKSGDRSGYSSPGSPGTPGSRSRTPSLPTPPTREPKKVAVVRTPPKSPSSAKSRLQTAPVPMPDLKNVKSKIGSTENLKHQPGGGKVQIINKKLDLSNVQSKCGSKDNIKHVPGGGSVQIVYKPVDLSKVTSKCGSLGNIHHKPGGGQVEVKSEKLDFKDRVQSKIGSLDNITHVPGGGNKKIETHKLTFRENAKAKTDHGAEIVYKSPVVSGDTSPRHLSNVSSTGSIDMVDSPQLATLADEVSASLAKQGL
UniProt Q9HBW0, sequence (whole entry, looked up): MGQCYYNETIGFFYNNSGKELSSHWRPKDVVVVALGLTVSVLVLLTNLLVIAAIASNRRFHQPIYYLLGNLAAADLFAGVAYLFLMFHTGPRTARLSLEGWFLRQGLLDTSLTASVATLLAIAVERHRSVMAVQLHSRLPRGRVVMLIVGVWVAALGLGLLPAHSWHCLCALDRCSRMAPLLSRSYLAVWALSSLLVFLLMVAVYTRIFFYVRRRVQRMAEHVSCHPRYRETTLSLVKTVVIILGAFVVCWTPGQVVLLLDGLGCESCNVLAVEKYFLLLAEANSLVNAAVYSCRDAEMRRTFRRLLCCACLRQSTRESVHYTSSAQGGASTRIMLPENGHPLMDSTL
UniProt Q06187, sequence (whole entry, looked up): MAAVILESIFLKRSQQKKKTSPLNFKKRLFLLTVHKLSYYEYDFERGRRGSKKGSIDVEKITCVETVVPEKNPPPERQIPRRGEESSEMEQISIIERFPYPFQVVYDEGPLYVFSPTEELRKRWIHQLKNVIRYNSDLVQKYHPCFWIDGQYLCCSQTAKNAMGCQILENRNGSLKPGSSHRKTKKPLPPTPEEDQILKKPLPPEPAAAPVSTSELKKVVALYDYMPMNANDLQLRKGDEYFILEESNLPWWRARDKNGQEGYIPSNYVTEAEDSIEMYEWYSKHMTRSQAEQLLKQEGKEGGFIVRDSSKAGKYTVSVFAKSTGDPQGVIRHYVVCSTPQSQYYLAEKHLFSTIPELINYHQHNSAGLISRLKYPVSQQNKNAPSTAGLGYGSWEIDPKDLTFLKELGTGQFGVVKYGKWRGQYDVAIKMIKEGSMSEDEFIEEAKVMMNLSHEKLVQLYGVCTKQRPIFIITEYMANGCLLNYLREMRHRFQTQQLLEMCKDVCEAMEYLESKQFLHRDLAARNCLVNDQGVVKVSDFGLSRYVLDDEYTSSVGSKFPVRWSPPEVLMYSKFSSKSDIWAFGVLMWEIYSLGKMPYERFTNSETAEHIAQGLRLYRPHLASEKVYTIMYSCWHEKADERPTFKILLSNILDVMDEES
UniProt Q8VHW5, sequence (whole entry, looked up): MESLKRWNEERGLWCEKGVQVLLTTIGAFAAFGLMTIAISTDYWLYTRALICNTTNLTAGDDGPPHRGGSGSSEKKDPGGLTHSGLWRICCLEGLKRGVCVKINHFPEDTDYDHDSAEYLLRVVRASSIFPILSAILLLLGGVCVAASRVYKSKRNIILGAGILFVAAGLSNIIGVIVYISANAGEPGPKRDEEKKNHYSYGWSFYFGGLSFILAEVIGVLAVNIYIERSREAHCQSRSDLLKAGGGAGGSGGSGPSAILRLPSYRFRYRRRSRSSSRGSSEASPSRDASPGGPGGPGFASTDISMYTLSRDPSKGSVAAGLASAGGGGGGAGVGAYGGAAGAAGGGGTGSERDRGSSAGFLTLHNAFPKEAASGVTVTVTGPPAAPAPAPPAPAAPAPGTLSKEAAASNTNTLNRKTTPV
UniProt P28336, sequence (whole entry, looked up): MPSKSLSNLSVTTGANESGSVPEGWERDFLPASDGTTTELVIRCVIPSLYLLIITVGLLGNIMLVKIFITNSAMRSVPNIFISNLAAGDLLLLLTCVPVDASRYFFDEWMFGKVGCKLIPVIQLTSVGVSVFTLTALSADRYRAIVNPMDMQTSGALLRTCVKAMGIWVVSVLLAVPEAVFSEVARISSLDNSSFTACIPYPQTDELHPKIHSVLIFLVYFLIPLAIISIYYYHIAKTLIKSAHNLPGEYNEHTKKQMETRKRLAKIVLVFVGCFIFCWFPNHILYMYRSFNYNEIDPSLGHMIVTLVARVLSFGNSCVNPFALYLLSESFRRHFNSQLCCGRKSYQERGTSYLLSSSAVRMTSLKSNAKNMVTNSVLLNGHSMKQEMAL
UniProt Q9CYN9, sequence (whole entry, looked up): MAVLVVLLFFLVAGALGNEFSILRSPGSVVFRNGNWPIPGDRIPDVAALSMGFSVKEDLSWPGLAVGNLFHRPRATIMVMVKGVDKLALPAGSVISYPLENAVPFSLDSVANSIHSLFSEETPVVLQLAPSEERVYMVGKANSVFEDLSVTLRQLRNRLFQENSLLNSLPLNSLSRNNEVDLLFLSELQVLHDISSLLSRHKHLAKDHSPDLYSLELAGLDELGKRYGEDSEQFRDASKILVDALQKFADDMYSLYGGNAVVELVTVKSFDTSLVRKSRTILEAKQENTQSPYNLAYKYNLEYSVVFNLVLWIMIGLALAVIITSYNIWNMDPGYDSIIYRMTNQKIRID
UniProt P10145, sequence (whole entry, looked up): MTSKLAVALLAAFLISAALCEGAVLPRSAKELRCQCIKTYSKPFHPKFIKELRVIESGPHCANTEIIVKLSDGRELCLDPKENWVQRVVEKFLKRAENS
UniProt P09470, sequence (whole entry, looked up): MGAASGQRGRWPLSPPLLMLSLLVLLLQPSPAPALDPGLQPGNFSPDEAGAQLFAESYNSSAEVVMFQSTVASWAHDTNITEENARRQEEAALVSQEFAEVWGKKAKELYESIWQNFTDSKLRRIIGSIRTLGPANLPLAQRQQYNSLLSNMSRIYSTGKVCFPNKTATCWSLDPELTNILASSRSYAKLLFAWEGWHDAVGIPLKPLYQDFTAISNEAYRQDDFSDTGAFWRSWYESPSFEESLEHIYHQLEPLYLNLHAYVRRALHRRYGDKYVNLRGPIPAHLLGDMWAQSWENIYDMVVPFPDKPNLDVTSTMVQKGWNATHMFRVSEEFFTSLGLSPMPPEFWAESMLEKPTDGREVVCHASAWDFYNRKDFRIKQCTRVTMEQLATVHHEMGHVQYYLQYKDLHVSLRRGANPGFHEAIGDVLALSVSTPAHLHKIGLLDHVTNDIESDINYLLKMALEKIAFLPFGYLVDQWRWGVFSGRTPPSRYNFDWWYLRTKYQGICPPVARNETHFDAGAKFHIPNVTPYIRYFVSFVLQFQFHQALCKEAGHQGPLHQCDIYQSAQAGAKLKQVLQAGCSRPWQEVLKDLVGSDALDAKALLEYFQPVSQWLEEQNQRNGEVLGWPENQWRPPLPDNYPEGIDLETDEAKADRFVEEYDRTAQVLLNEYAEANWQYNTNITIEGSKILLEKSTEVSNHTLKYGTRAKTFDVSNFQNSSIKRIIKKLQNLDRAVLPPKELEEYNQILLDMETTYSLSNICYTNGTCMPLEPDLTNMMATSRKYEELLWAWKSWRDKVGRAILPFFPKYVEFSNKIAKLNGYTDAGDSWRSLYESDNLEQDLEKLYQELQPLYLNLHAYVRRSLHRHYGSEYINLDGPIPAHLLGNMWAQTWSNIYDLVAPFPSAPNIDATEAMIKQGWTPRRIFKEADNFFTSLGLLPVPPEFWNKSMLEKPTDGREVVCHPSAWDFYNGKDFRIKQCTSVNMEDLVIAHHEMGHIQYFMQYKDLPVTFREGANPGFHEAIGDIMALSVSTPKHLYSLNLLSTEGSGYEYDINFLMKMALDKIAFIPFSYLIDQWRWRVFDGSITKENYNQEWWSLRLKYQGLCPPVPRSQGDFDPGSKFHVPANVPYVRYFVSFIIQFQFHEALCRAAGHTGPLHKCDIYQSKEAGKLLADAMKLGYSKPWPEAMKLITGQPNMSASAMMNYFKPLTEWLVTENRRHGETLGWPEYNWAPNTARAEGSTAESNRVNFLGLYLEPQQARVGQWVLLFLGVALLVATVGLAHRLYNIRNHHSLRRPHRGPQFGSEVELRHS

SMILES | target | test | system | conditions | scale | measurement | result
CN1CCc2cc(O)c(O)cc2C(c2ccccc2)C1 (stereo not shown) | Carbamate kinase (Giardia intestinalis, UniProt A8BB85) | enzyme activity, inhibitor, luminescence, ATP detection | Giardia lamblia | – | – | maximal inhibition | 85.4%
Nc1nc2c(ncn2[C@H]2C[C@H](O)[C@@H](COP(=O)(O)OP(=O)(O)[C@H](F)P(=O)(O)O)O2)c(=O)[nH]1 | POLB | substrate | – | opposite dC | reference: R over S | stereoselectivity ratio | 3
[11CH3]c1ccc2nc(C3CCC3)n(-c3ccc4[nH]ncc4c3)c2n1 | Voltage-dependent calcium channel gamma-8 subunit (Rattus norvegicus, UniProt Q8VHW5) | PET | Sprague-Dawley rat | dose not given, together with: blocker pretreatment 1 mg/kg | reference: baseline | BPND reduction | 93 to 99%
Cc1ccc2c(c1Br)C(O)(CC(=O)c1ccc3c(c1)OCO3)C(=O)N2 (stereo not shown) | Uncharacterized protein (Trypanosoma brucei brucei, UniProt Q386Q8) | binding, surface plasmon resonance | Trypanosoma brucei | together with: UTP 500 µM | – | koff | 0.21 ± 0.03 s⁻¹
CCCN(CC(=O)N(CCC)CC(=O)N(CC(N)=O)Cc1cn(CCCNC(=O)CCCOc2cccc(-c3nc4ccc(-c5nc6ccc(N7CCN(C)CC7)cc6[nH]5)cc4[nH]3)c2)nn1)C(=O)CNCc1cn(CCCNC(=O)CCCOc2cccc(-c3nc4ccc(-c5nc6ccc(N7CCN(C)CC7)cc6[nH]5)cc4[nH]3)c2)nn1 | T1, ssRNA FMR1 5' UTR CGG repeat (Homo sapiens) | protein displacement, competitor, TR-FRET | – | – | – | IC50 | 17 µM
CCC1CC2C(C)=CC3C(=O)CCCC3C=CC(C)=CC2C(=O)O1 (stereo not shown) | Microtubule-associated protein tau, R3 peptide oligomers (MAPT, Homo sapiens, UniProt P10636) | thioflavin T fluorescence | – | 500 µM | – | R3 fibril reduction | 22.1%
CC(=O)NCC(=O)N[C@@H](CC(=O)O)C(=O)N[C@@H](Cc1ccc(O)cc1)C(=O)N[C@@H](CO)C(=O)N[C@@H](Cc1c[nH]cn1)C(=O)N[C@H]1CSSC[C@@H](C(=O)N[C@H](C(=O)N[C@@H](Cc2ccc(O)cc2)C(=O)N2CCC[C@H]2C(=O)N[C@@H](CC(=O)O)C(=O)N2CCC[C@H]2C(=O)N[C@@H](CCC(=O)O)C(=O)NCC(=O)NCC(=O)NCC(N)=O)[C@@H](C)O)NC(=O)[C@H](CCCCN)NC(=O)[C@H](Cc2c[nH]c3ccccc23)NC(=O)[C@H](Cc2c[nH]c3ccccc23)NC(=O)[C@@H]2CCCN2C(=O)[C@H](Cc2ccc(O)cc2)NC(=O)[C@H](Cc2ccc(O)cc2)NC(=O)[C@H](CCCNC(=N)N)NC(=O)[C@H](CC(C)C)NC(=O)[C@@H]2CCCN2C(=O)[C@H](CO)NC1=O | Angiotensin-converting enzyme (Mus musculus, UniProt P09470) | enzyme activity | mouse Lin- cell lysate | 4 h | – | maximum inhibition | 7 ± 1%
CC(C)C[C@@H](CN[C@@H](Cc1ccc(Cl)cc1)C(N)=O)NC(=O)[C@H](Cc1c[nH]cn1)NC(=O)CNC(=O)[C@@H](NC(=O)[C@H](C)NC(=O)[C@H](Cc1c[nH]c2ccccc12)NC(=O)[C@H](CCC(N)=O)NC(=O)[C@H](N)Cc1ccccc1)C(C)C | NMBR (Homo sapiens, UniProt P28336) | inositol phosphate generation, agonist | NMBR-transfected BALB/3T3 | – | reference: 1 µM NMB | maximal response | 10%
OC1CCCN(CCCNc2cc(-c3ccccc3)nc3ccnn23)C1 (stereo not shown) | DNA dC->dU-editing enzyme APOBEC-3A (Homo sapiens, UniProt P31941) | binding, 1H CPMG NMR | – | – | – | signal attenuation | 55.5 ± 6.5%
CC(=O)N[C@@H]1[C@@H](O[C@@H]2O[C@H](C(=O)O)[C@@H](O[C@@H]3O[C@H](COS(=O)(=O)O)[C@@H](OS(=O)(=O)O)[C@H](O[C@@H]4O[C@H](C(=O)O)[C@@H](OS(=O)(=O)O)[C@H](OS(=O)(=O)O)[C@H]4OS(=O)(=O)O)[C@H]3NC(C)=O)[C@H](OS(=O)(=O)O)[C@H]2OS(=O)(=O)O)[C@H](OS(=O)(=O)O)[C@@H](COS(=O)(=O)O)O[C@H]1SCCOCCOCCSSCCOCCOCCS[C@@H]1O[C@H](COS(=O)(=O)O)[C@@H](OS(=O)(=O)O)[C@H](O[C@@H]2O[C@H](C(=O)O)[C@@H](O[C@@H]3O[C@H](COS(=O)(=O)O)[C@@H](OS(=O)(=O)O)[C@H](O[C@@H]4O[C@H](C(=O)O)[C@@H](OS(=O)(=O)O)[C@H](OS(=O)(=O)O)[C@H]4OS(=O)(=O)O)[C@H]3NC(C)=O)[C@H](OS(=O)(=O)O)[C@H]2OS(=O)(=O)O)[C@H]1NC(C)=O | Interleukin-8 (CXCL8, Homo sapiens, UniProt P10145) | FP competition | – | – | reference: cpd over monovalent azide analogue, higher = stronger binding | binding affinity ratio | 417 fold
Cc1cn(C2CC(O)C(COP(=O)(O)OP(=O)(O)C(F)P(=O)(O)O)O2)c(=O)[nH]c1=O (mixture of isomers) | POLB | nucleotide incorporation rate, substrate, single-turnover kinetics | single-nucleotide gapped DNA | 37 °C, wild type, correct incorporation, together with: dTTP opposite template A | – | kpol | 18.3 ± 1.1 s⁻¹
COc1cc2c(cc1OC)C(c1ccc(F)cc1F)N(CCCOc1ccc(CCC(=O)O)cc1)CC2 (stereo not shown) | PPARG (Homo sapiens, UniProt P37231, Y501A) | agonist, reporter gene | CHO | 10 µM | reference: wild type | transactivation | decreased
COc1ccc(-c2cc(C(F)(F)F)nc(S(=O)(=O)CCCC(=O)Nc3c(F)cc(F)cc3Br)n2)cc1OC | SCTR | increase of tracer binding, TR-FRET | HEK293 membranes | together with: Fluo-Sec 6 nM | – | Emax | 128 ± 15%
Nc1nc2c(ncn2[C@H]2C[C@H](O)[C@@H](COP(=O)(O)OP(=O)(O)C(Cl)(Cl)P(=O)(O)O)O2)c(=O)[nH]1 | POLB I260M | nucleotide incorporation rate, substrate, single-turnover kinetics | single-nucleotide gapped DNA | 37 °C, I260M, misincorporation, together with: dGTP opposite template A | – | kpol | 0.003 ± 0.0002 s⁻¹
CC1(C)C(/C=C/C2=C(Oc3ccc(CCC(=O)N[C@@H](CSC4CC(=O)N(CCNC(=O)CN5CCN(CC(=O)O)CCN(CC(=O)O)CCN(CC(=O)O)CC5)C4=O)C(=O)NCCCC[C@@H]4NC(=O)[C@@H](Cc5ccc(O)cc5)NC(=O)[C@H](CC(=O)O)NC(=O)CNC(=O)[C@H](CCCNC(=N)N)NC4=O)cc3)C(=C/C=C3/N(CCC[N+](C)(C)C)c4ccc(S(=O)(=O)O)cc4C3(C)C)/CCC2)=[N+](CCC[N+](C)(C)C)c2ccc(S(=O)(=O)O)cc21 (stereo partly shown) [copper-64 labelled] | integrin αvβ3 | dynamic PET, Logan plot | female athymic nude mouse, MDA-MB-435 xenograft | dose not given, 60 min, unit not given | reference: muscle | binding potential | 1.75 ± 0.026
CC1=C[C@@H]2C(=C(C)CC[C@H]2C(C)C)C[C@@H]1O | DH1 dehydrogenase (Gossypium hirsutum) | oxidation to 7-ketone, substrate | – | – | – | Km | 0.48 ± 0.04 µM
CC(C)CCC[C@@H](C)[C@H]1CC[C@H]2[C@@H]3CC=C4C[C@@H](OS(=O)(=O)O)CC[C@]4(C)[C@H]3CC[C@]12C | Prothrombin (F2, Homo sapiens, UniProt P00734) | Spectrozyme TH hydrolysis | – | 125 µM, pH 7.4, 25 °C | – | Vmax | 19.5 ± 1.3 mAU/min
Nc1nc2c(ncn2[C@H]2C[C@H](O)[C@@H](COP(=O)(O)OP(=O)(O)C(F)(F)P(=O)(O)O)O2)c(=O)[nH]1 | POLB I260M | nucleotide incorporation, substrate, single turnover kinetics | – | dG misincorporation opposite A | – | kpol/Kd | 10 ± 3.5 M⁻¹ s⁻¹
CN(C1COC1)C(C)(C)/C=C(\C#N)C(=O)N1CCC[C@H]1Cn1nc(-c2ccc(Oc3ccccc3)cc2F)c2c(N)ncnc21 | BTK (Homo sapiens, UniProt Q06187) | – | – | – | – | residence time | 10000 ± 1260 min
Nc1ncnc2c1ncn2[C@@H]1O[C@H](CO)[C@@H](O[C@H]2O[C@H](CO)[C@@H](OP(=O)(O)O)[C@H](OP(=O)(O)O)[C@H]2O)[C@H]1O | Inositol 1,4,5-trisphosphate-gated calcium channel ITPR1, IP3-binding core (Itpr1, Rattus norvegicus, UniProt P29994, R568Q) | binding, 3H-IP3 competition | – | IP3-binding core, unit not given | reference: R568Q over wild type | ΔpKd | 0.48 ± 0.12
CC[C@H](C)[C@H](NC(=O)[C@H](CCCNC(=N)N)NC(=O)[C@H](CCC(=O)O)NC(=O)[C@H](Cc1ccccc1)NC(=O)[C@@H](NC(=O)[C@H](C)NC(=O)[C@@H](NC(=O)[C@H](CCCNC(=N)N)NC(=O)[C@@H](NC(=O)[C@@H]1CCCN1C(=O)[C@H](CC(C)C)NC(=S)Nc1ccc2c(c1)C(=O)OC21c2ccc(O)cc2Oc2cc(O)ccc21)[C@@H](C)O)[C@@H](C)O)[C@@H](C)O)C(=O)N1CCC[C@H]1C(=O)N[C@@H](CC(C)C)C(=O)N[C@@H](CCCCN)C(=O)N[C@@H](CCCCN)C(=O)N[C@@H](CCSC)C(=O)N1CCC[C@H]1C(=O)N[C@@H](CO)C(=O)N[C@H](C(=O)N[C@@H](CCCNC(=N)N)C(=O)O)C(C)C | Renin receptor (Atp6ap2, Mus musculus, UniProt Q9CYN9) | – | neuron-specific PRR-KO mice, brain sections PVN | dose not given | reference: wild type | fluorescent binding | decreased
COc1ccc(-c2cc(C(F)(F)F)nc(NCc3cccnc3)n2)cc1OC | SCTR | increase of tracer binding, TR-FRET | HEK293 membranes | together with: Fluo-Sec 6 nM | – | Emax | 165 ± 12%
CCCCCCCC/C=C\CCCCCCCC(=O)O[C@H]1CCCO[C@H]1COP(=O)(O)S (stereo partly shown) | LPAR2 (Homo sapiens, UniProt Q9HBW0) | agonist, TGFα shedding | – | – | – | Emax | 74%
Cc1cn([C@H]2C[C@H](O)[C@@H](COP(=O)(O)OP(=O)(O)C(Cl)(Cl)P(=O)(O)O)O2)c(=O)[nH]c1=O | POLB | nucleotide incorporation rate, substrate, single-turnover kinetics | single-nucleotide gapped DNA | 37 °C, wild type, correct incorporation, together with: dTTP opposite template A | – | kpol | 0.66 ± 0.09 s⁻¹
N#Cc1cccc(-c2ccc(=O)n(Cc3cccc(-c4ncc(OCC5CCN(CC(=O)N6CCN(CCNc7ccc8c(c7)C(=O)N(C7CCC(=O)NC7=O)C8=O)CC6)CC5)cn4)c3)n2)c1 (stereo not shown) | MET (Homo sapiens, UniProt P08581) | degrader | EBC-1 | concentration not given | – | Dmax | > 99%

A few entries again:
SMILES | target | test | system | conditions | scale | measurement | result
CC(C)CCC[C@@H](C)[C@H]1CC[C@H]2[C@@H]3CC=C4C[C@@H](OS(=O)(=O)O)CC[C@]4(C)[C@H]3CC[C@]12C | Prothrombin (F2, Homo sapiens, UniProt P00734) | Spectrozyme TH hydrolysis | – | 125 µM, pH 7.4, 25 °C | – | Vmax | 19.5 ± 1.3 mAU/min
CCCN(CC(=O)N(CCC)CC(=O)N(CC(N)=O)Cc1cn(CCCNC(=O)CCCOc2cccc(-c3nc4ccc(-c5nc6ccc(N7CCN(C)CC7)cc6[nH]5)cc4[nH]3)c2)nn1)C(=O)CNCc1cn(CCCNC(=O)CCCOc2cccc(-c3nc4ccc(-c5nc6ccc(N7CCN(C)CC7)cc6[nH]5)cc4[nH]3)c2)nn1 | T1, ssRNA FMR1 5' UTR CGG repeat (Homo sapiens) | protein displacement, competitor, TR-FRET | – | – | – | IC50 | 17 µM
OC1CCCN(CCCNc2cc(-c3ccccc3)nc3ccnn23)C1 (stereo not shown) | DNA dC->dU-editing enzyme APOBEC-3A (Homo sapiens, UniProt P31941) | binding, 1H CPMG NMR | – | – | – | signal attenuation | 55.5 ± 6.5%
CC1(C)C(/C=C/C2=C(Oc3ccc(CCC(=O)N[C@@H](CSC4CC(=O)N(CCNC(=O)CN5CCN(CC(=O)O)CCN(CC(=O)O)CCN(CC(=O)O)CC5)C4=O)C(=O)NCCCC[C@@H]4NC(=O)[C@@H](Cc5ccc(O)cc5)NC(=O)[C@H](CC(=O)O)NC(=O)CNC(=O)[C@H](CCCNC(=N)N)NC4=O)cc3)C(=C/C=C3/N(CCC[N+](C)(C)C)c4ccc(S(=O)(=O)O)cc4C3(C)C)/CCC2)=[N+](CCC[N+](C)(C)C)c2ccc(S(=O)(=O)O)cc21 (stereo partly shown) [copper-64 labelled] | integrin αvβ3 | dynamic PET, Logan plot | female athymic nude mouse, MDA-MB-435 xenograft | dose not given, 60 min, unit not given | reference: muscle | binding potential | 1.75 ± 0.026
